Results pooled from the literature.
Each line is one published result; not all experiments were run side by side. Numbers after ± are the reported error. Converted amounts (≈) assume the structure as drawn.

Cc1cccc(-c2nc(Nc3ccncn3)c3sccc3n2)n1
MIC (Mycobacterium tuberculosis variant bovis BCG; microbial growth; THP-1, BCG; intracellular): > 10 µM

CC[C@H](C)[C@H](NC(=O)[C@H](CCCNC(=N)N)NC(=O)[C@H](CCCCN)NC(=O)[C@H](CC(C)C)NC(=O)[C@H](CC(C)C)NC(=O)CN)C(=O)N[C@@H](CCCCN)C(=O)N[C@H](C(=O)N[C@@H](CC(C)C)C(=O)N[C@@H](CC(C)C)C(=O)NCCCC[C@H](NC(=O)[C@H](CCCCNC(=O)[C@H](CC(C)C)NC(=O)[C@H](CC(C)C)NC(=O)[C@@H](NC(=O)[C@H](CCCCN)NC(=O)[C@@H](NC(=O)[C@H](CCCNC(=N)N)NC(=O)[C@H](CCCCN)NC(=O)[C@H](CC(C)C)NC(=O)[C@H](CC(C)C)NC(=O)CN)[C@@H](C)CC)[C@@H](C)O)NC(=O)[C@H](CC(C)C)NC(=O)[C@H](CC(C)C)NC(=O)[C@@H](NC(=O)[C@H](CCCCN)NC(=O)[C@@H](NC(=O)[C@H](CCCNC(=N)N)NC(=O)[C@H](CCCCN)NC(=O)[C@H](CC(C)C)NC(=O)[C@H](CC(C)C)NC(=O)CN)[C@@H](C)CC)[C@@H](C)O)C(N)=O)[C@@H](C)O
geometric mean MIC (five bacterial species; bacterial growth): 4.59 µM

CCC(=C(c1ccc(Cl)cc1)c1ccc(OCCN2CCOCC2)cc1)c1ccc(Cl)cc1
EC50 (influenza A virus H1N1; cytopathic effect, visual CPE; MDCK): > 8.4 µg/mL

CCCC(=O)NCC(=O)N[C@@H](CC(C)C)C(=O)N[C@@H](CC(C)C)C(=O)N[C@@H](CCCCN)C(=O)N[C@@H](CCCNC(=N)N)C(=O)N[C@H](C(=O)N[C@@H](CCCCN)C(=O)N[C@H](C(=O)N[C@@H](CC(C)C)C(=O)N[C@@H](CC(C)C)C(N)=O)[C@@H](C)O)[C@@H](C)CC
geometric mean MIC (five bacterial species; bacterial growth): 194 µM

O=S(=O)(c1ccc(Cl)c(Cl)c1)N1CCCC2=CC3CC(CN4CCCCC34)C21 (stereo not drawn)
EC50 (vesicular stomatitis virus; pseudovirus entry; VSV G pseudovirus): 176 µM

CCC(=C(c1ccc(Cl)cc1)c1ccc(OCCN2CCCCC2)cc1)c1ccccc1
EC50 (influenza A virus H1N1; cytopathic effect, visual CPE; MDCK): > 2.8 µg/mL

O=S(=O)(c1cc(Cl)cc(Cl)c1)N1CCCC2=CC3CC(CN4CCCCC34)C21 (stereo not drawn)
EC50 (vesicular stomatitis virus; pseudovirus entry; VSV G pseudovirus): 38.5 µM

COc1ccc(CC(C)=C(c2ccc(Cl)cc2)c2ccc(OCCN3CCCCC3)cc2)cc1
EC50 (influenza A virus H1N1; cytopathic effect, visual CPE; MDCK): > 3.2 µg/mL

O=C(c1cc(Cl)cc(Cl)c1)N1CCCC2=CC3CC(CN4CCCCC34)C21 (stereo not drawn)
EC50 (vesicular stomatitis virus; pseudovirus entry; VSV G pseudovirus): 79.2 µM

COc1ccc2nc(C)cc(OCC(=O)Nc3cc(C)cc(C)c3)c2c1
MIC (Mycobacterium tuberculosis variant bovis BCG; microbial growth; THP-1, BCG; intracellular): > 10 µM

C[C@@](O)(C(F)F)[C@H](NC(=O)c1ccc(C#CC#CC2CC2)cc1)C(=O)NO
MIC50 (Yersinia): 0.064 µg/mL (≈ 0.17 µM)

CCC(=C(c1ccc(Cl)cc1)c1ccc(OCCN2CCOCC2)cc1)c1ccccc1
EC50 (influenza A virus H1N1; cytopathic effect, visual CPE; MDCK): > 32 µg/mL

CCc1ccc([C@@H]2C[C@H](C(F)(F)F)n3ncc(C(=O)NCc4ccc(OC)cc4)c3N2)cc1
MIC (Mycobacterium tuberculosis variant bovis BCG; microbial growth; THP-1, BCG; intracellular): 0.5 µM (≈ 0.229 µg/mL)

CCCCCCCCCCCC(=O)NCC(=O)N[C@@H](CC(C)C)C(=O)N[C@@H](CC(C)C)C(=O)N[C@@H](CCCCN)C(=O)N[C@@H](CCCNC(=N)N)C(=O)N[C@H](C(=O)N[C@@H](CCCCN)C(=O)N[C@H](C(=O)N[C@@H](CC(C)C)C(=O)N[C@@H](CC(C)C)C(N)=O)[C@@H](C)O)[C@@H](C)CC
geometric mean MIC (five bacterial species; bacterial growth): 36.8 µM

Cc1cccc(-c2nc(Nc3ccncn3)c3c(C)csc3n2)n1
MIC (Mycobacterium tuberculosis variant bovis BCG; microbial growth; THP-1, BCG; intracellular): > 10 µM

Cc1nc([C@H](NC(=O)c2ccc(-c3ccc(Cl)cc3)[nH]2)[C@@H]2CCCCN2)sc1CO
IC50 (vesicular stomatitis virus; viral entry; VSV-G pseudovirus): 8.1 ± 1 µM

O=C(c1ccc(Cl)c(Cl)c1)N1CCCC2=CC3CC(CN4CCCCC34)C21 (stereo not drawn)
EC50 (vesicular stomatitis virus; pseudovirus entry; VSV G pseudovirus): 48.7 µM

CC[C@H](C)[C@H](NC(=O)[C@H](CCCCN)NC(=O)[C@@H](NC(=O)[C@H](CS)NC(=O)[C@H](CCCNC(=N)N)NC(=O)[C@H](CCCNC(=N)N)NC(=O)[C@H](CC(N)=O)NC(=O)[C@H](CCCNC(=N)N)NC(=O)[C@H](CS)NC(=O)[C@@H](NC(=O)[C@H](CO)NC(=O)[C@@H](NC(=O)[C@H](CS)NC(=O)[C@H](CCCCN)NC(=O)[C@@H](N)CCCNC(=N)N)[C@@H](C)CC)C(C)C)[C@@H](C)CC)C(=O)N[C@@H](CS)C(=O)N[C@@H](CCCNC(=N)N)C(=O)O
MBC (Acinetobacter baumannii; AB5075, RPMI; median): 8 µg/mL (≈ 3.8 µM)

Fc1ccc(-c2ccc(Cn3ccnc3)c(F)c2)cc1F
MIC50 (Mycobacterium tuberculosis variant bovis BCG; microbial growth; BCG): 0.9 µg/mL (≈ 3.12 µM)

O=C(CN1CCCC2=CC3CC(CN4CCCCC34)C21)Nc1ccc(Br)c(C(F)(F)F)c1 (stereo not drawn)
EC50 (vesicular stomatitis virus; pseudovirus entry; VSV G pseudovirus): 6 µM

Cc1cn(C2CC(N(C)C)C(CO)O2)c(=O)[nH]c1=O (stereo not drawn)
EC50 (vesicular stomatitis virus; viral replication; HEL): > 0.37 µM

c1cn(Cc2ccc(-c3ccc4occc4c3)cc2)cn1
MIC50 (Mycobacterium tuberculosis variant bovis BCG; microbial growth; BCG): 0.9 µg/mL (≈ 3.28 µM)

COc1ccc(CC(C)=C(c2ccc(Cl)cc2)c2ccc(OCCCN(C)C)cc2)cc1
EC50 (influenza A virus H1N1; cytopathic effect, visual CPE; MDCK): > 3.2 µg/mL

FC(F)(F)c1ccc(-c2ccc(Cn3ccnc3)cc2)cc1
MIC50 (Mycobacterium tuberculosis variant bovis BCG; microbial growth; BCG): 0.8 µg/mL (≈ 2.65 µM)

CCC(=C(c1ccc(Cl)cc1)c1ccc(OCCN2CCCC2)cc1)c1ccc(Cl)cc1
EC50 (influenza A virus H1N1; cytopathic effect, visual CPE; MDCK): 5.6 µg/mL

CN(CC(=O)N1CCCC2=CC3CC(CN4CCCCC34)C21)c1ccc(Cl)cc1 (stereo not drawn)
EC50 (vesicular stomatitis virus; pseudovirus entry; VSV G pseudovirus): 85.6 µM

Cc1cc(Oc2nc(N3CC[C@@H](c4ccncc4)C3)ncc2F)[nH]n1
MIC90 (Mycobacterium tuberculosis; H37Rv): 8.6 nM (≈ 0.00293 µg/mL)

CCCCCC(=O)NCC(=O)N[C@@H](CC(C)C)C(=O)N[C@@H](CC(C)C)C(=O)N[C@@H](CCCCN)C(=O)N[C@@H](CCCNC(=N)N)C(=O)N[C@H](C(=O)N[C@@H](CCCCN)C(=O)N[C@H](C(=O)N[C@@H](CC(C)C)C(=O)N[C@@H](CC(C)C)C(=O)NCCCC[C@H](NC(=O)[C@H](CCCCNC(=O)[C@H](CC(C)C)NC(=O)[C@H](CC(C)C)NC(=O)[C@@H](NC(=O)[C@H](CCCCN)NC(=O)[C@@H](NC(=O)[C@H](CCCNC(=N)N)NC(=O)[C@H](CCCCN)NC(=O)[C@H](CC(C)C)NC(=O)[C@H](CC(C)C)NC(=O)CNC(=O)CCCCC)[C@@H](C)CC)[C@@H](C)O)NC(=O)[C@H](CC(C)C)NC(=O)[C@H](CC(C)C)NC(=O)[C@@H](NC(=O)[C@H](CCCCN)NC(=O)[C@@H](NC(=O)[C@H](CCCNC(=N)N)NC(=O)[C@H](CCCCN)NC(=O)[C@H](CC(C)C)NC(=O)[C@H](CC(C)C)NC(=O)CNC(=O)CCCCC)[C@@H](C)CC)[C@@H](C)O)C(N)=O)[C@@H](C)O)[C@@H](C)CC
geometric mean MIC (five bacterial species; bacterial growth): 13.9 µM

c1cc2c(s1)CCOC21CCN(Cc2ccc3c(c2)OCCO3)CC1
MIC (Mycobacterium tuberculosis variant bovis BCG; microbial growth; THP-1, BCG; intracellular): 0.4 µM (≈ 0.143 µg/mL)

CCC(=C(c1ccc(Cl)cc1)c1ccc(OCCN2CCCC2)cc1)c1ccc(OC)cc1
EC50 (influenza A virus H1N1; cytopathic effect, visual CPE; MDCK): > 3.2 µg/mL

CCCCCCCC(=O)NCC(=O)N[C@@H](CC(C)C)C(=O)N[C@@H](CC(C)C)C(=O)N[C@@H](CCCCN)C(=O)N[C@@H](CCCNC(=N)N)C(=O)N[C@H](C(=O)N[C@@H](CCCCN)C(=O)N[C@H](C(=O)N[C@@H](CC(C)C)C(=O)N[C@@H](CC(C)C)C(=O)NCCCC[C@H](NC(=O)[C@H](CC(C)C)NC(=O)[C@H](CC(C)C)NC(=O)[C@@H](NC(=O)[C@H](CCCCN)NC(=O)[C@@H](NC(=O)[C@H](CCCNC(=N)N)NC(=O)[C@H](CCCCN)NC(=O)[C@H](CC(C)C)NC(=O)[C@H](CC(C)C)NC(=O)CNC(=O)CCCCCCC)[C@@H](C)CC)[C@@H](C)O)C(N)=O)[C@@H](C)O)[C@@H](C)CC
geometric mean MIC (five bacterial species; bacterial growth): 42.2 µM

COc1ccc(-c2ccc3c(c2)CCC3n2ccnc2)cc1 (stereo not drawn)
MIC50 (Mycobacterium tuberculosis variant bovis BCG; microbial growth; BCG): 1.1 µg/mL (≈ 3.79 µM)

O=C(CN1CCCC2=CC3CC(CN4CCCCC34)C21)Nc1cc(Cl)cc(OC(F)(F)F)c1 (stereo not drawn)
EC50 (vesicular stomatitis virus; pseudovirus entry; VSV G pseudovirus): 21.8 µM

COc1ccc2nc(C)cc(OCC(=O)Nc3ccccc3OC)c2c1
MIC (Mycobacterium tuberculosis variant bovis BCG; microbial growth; THP-1, BCG; intracellular): > 10 µM

CCCCCCCC(=O)NCC(=O)N[C@@H](CC(C)C)C(=O)N[C@@H](CC(C)C)C(=O)N[C@@H](CCCCN)C(=O)N[C@@H](CCCNC(=N)N)C(=O)N[C@H](C(=O)N[C@@H](CCCCN)C(=O)N[C@H](C(=O)N[C@@H](CC(C)C)C(=O)N[C@@H](CC(C)C)C(=O)NCCCC[C@H](NC(=O)[C@H](CCCCNC(=O)[C@H](CC(C)C)NC(=O)[C@H](CC(C)C)NC(=O)[C@@H](NC(=O)[C@H](CCCCN)NC(=O)[C@@H](NC(=O)[C@H](CCCNC(=N)N)NC(=O)[C@H](CCCCN)NC(=O)[C@H](CC(C)C)NC(=O)[C@H](CC(C)C)NC(=O)CNC(=O)CCCCCCC)[C@@H](C)CC)[C@@H](C)O)NC(=O)[C@H](CC(C)C)NC(=O)[C@H](CC(C)C)NC(=O)[C@@H](NC(=O)[C@H](CCCCN)NC(=O)[C@@H](NC(=O)[C@H](CCCNC(=N)N)NC(=O)[C@H](CCCCN)NC(=O)[C@H](CC(C)C)NC(=O)[C@H](CC(C)C)NC(=O)CNC(=O)CCCCCCC)[C@@H](C)CC)[C@@H](C)O)C(N)=O)[C@@H](C)O)[C@@H](C)CC
geometric mean MIC (five bacterial species; bacterial growth): 42.2 µM

COc1ccc(CCNc2cc(-c3ccccc3)nc3ncnn23)cc1
MIC (Mycobacterium tuberculosis variant bovis BCG; microbial growth; BCG): 1 µM (≈ 0.345 µg/mL)

Clc1ccc(CN2CCCC3=CC4CC(CN5CCCCC45)C32)cc1 (stereo not drawn)
EC50 (vesicular stomatitis virus; pseudovirus entry; VSV G pseudovirus): 40.2 µM

CCC(=C(c1ccc(Cl)cc1)c1ccc(OCCCN(C)C)cc1)c1ccccc1
EC50 (influenza A virus H1N1; cytopathic effect, visual CPE; MDCK): 0.29 µg/mL

Cc1ccc2nc(C(F)(F)F)c(C(=O)NCc3cccc(Cl)c3)n2c1
MIC (Moraxella catarrhalis; microbial growth, broth dilution; 1502): 64 µM (≈ 23.5 µg/mL)

For quick reference, copied from above:
O=S(=O)(c1cc(Cl)cc(Cl)c1)N1CCCC2=CC3CC(CN4CCCCC34)C21 (stereo not drawn)
EC50 (vesicular stomatitis virus; pseudovirus entry; VSV G pseudovirus): 38.5 µM

COc1ccc(CC(C)=C(c2ccc(Cl)cc2)c2ccc(OCCN3CCCCC3)cc2)cc1
EC50 (influenza A virus H1N1; cytopathic effect, visual CPE; MDCK): > 3.2 µg/mL

O=C(c1cc(Cl)cc(Cl)c1)N1CCCC2=CC3CC(CN4CCCCC34)C21 (stereo not drawn)
EC50 (vesicular stomatitis virus; pseudovirus entry; VSV G pseudovirus): 79.2 µM

COc1ccc2nc(C)cc(OCC(=O)Nc3cc(C)cc(C)c3)c2c1
MIC (Mycobacterium tuberculosis variant bovis BCG; microbial growth; THP-1, BCG; intracellular): > 10 µM

C[C@@](O)(C(F)F)[C@H](NC(=O)c1ccc(C#CC#CC2CC2)cc1)C(=O)NO
MIC50 (Yersinia): 0.064 µg/mL (≈ 0.17 µM)

CCC(=C(c1ccc(Cl)cc1)c1ccc(OCCN2CCOCC2)cc1)c1ccccc1
EC50 (influenza A virus H1N1; cytopathic effect, visual CPE; MDCK): > 32 µg/mL
